Results gathered from unrelated publications.
A part holds a random share of what one study measured.
Sequence of UniProt P0C264 (whole entry, looked up): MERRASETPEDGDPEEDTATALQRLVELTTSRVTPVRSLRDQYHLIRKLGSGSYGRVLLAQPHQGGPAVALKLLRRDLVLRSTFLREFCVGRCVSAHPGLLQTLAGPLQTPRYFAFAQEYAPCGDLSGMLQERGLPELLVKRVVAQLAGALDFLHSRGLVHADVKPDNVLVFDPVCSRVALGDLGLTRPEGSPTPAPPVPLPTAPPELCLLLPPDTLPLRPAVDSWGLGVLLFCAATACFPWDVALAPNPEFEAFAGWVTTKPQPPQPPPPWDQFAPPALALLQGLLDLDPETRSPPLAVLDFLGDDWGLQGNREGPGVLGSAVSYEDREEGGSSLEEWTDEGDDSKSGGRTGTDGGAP
Sequence of UniProt Q86Z02 (whole entry, looked up): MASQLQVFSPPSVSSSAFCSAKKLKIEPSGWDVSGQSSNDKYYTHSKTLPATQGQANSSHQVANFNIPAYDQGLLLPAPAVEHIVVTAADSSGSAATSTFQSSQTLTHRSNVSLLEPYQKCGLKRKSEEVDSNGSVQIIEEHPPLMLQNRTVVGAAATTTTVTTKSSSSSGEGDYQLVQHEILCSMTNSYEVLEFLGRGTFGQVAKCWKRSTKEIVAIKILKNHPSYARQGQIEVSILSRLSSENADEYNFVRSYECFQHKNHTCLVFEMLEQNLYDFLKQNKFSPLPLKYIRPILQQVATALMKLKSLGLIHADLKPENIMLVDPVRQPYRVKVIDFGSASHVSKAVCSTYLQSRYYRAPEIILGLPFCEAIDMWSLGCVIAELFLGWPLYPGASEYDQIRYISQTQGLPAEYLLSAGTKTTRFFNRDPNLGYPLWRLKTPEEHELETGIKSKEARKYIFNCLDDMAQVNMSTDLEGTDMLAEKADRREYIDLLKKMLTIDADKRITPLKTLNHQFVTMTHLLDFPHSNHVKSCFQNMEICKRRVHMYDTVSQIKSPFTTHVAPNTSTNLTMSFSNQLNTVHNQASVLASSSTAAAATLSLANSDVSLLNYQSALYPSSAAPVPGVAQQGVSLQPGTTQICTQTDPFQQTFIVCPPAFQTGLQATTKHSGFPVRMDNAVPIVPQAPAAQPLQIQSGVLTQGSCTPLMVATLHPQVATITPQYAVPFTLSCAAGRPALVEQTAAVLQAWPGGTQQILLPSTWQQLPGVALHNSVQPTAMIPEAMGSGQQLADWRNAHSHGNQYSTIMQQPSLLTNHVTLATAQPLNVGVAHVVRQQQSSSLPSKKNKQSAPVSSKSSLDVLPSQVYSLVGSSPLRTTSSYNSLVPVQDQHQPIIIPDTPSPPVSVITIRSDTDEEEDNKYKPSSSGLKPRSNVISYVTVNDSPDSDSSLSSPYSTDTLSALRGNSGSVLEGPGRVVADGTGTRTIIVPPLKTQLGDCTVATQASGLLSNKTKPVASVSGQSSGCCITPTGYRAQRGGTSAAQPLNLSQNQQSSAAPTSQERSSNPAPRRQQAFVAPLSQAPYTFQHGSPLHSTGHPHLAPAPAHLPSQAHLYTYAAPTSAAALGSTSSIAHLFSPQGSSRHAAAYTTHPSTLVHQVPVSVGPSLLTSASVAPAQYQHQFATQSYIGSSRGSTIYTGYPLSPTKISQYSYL
Sequence of UniProt Q15349 (whole entry, looked up): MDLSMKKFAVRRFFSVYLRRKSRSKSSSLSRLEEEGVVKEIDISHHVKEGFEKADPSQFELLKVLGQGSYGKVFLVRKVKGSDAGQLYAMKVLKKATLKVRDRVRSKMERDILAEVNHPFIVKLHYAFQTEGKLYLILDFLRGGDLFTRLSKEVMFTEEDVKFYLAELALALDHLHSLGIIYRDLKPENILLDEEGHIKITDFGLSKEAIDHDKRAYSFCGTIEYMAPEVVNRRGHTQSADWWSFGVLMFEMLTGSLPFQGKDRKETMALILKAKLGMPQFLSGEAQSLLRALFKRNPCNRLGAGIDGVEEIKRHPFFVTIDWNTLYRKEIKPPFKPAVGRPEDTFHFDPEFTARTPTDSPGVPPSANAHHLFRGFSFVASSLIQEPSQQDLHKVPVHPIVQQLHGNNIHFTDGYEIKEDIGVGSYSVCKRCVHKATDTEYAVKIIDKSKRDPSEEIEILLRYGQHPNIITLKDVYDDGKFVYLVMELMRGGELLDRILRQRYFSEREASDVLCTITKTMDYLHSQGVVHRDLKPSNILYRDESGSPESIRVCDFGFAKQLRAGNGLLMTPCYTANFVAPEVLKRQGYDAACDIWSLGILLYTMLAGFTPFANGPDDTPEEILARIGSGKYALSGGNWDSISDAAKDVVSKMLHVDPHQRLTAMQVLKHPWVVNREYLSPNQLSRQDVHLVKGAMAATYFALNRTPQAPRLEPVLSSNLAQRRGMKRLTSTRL
Sequence of UniProt Q13546 (whole entry, looked up): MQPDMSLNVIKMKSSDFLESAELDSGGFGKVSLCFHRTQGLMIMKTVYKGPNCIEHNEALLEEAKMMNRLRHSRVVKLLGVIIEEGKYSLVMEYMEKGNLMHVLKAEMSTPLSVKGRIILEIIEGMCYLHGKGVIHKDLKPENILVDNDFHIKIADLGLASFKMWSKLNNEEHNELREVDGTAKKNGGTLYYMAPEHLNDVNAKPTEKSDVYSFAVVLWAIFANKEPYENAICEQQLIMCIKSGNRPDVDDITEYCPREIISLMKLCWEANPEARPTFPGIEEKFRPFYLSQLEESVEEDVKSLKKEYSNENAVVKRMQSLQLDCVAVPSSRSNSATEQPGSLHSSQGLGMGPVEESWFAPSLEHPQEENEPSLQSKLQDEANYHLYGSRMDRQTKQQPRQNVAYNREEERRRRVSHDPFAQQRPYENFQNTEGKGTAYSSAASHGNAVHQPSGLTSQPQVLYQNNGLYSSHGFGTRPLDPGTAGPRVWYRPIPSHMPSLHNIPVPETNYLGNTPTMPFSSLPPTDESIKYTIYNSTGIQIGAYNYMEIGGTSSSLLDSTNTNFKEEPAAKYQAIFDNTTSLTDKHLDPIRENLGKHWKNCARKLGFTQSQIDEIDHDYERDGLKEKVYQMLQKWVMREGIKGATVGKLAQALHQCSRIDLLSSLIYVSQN
Sequence of UniProt Q9NRM7 (whole entry, looked up): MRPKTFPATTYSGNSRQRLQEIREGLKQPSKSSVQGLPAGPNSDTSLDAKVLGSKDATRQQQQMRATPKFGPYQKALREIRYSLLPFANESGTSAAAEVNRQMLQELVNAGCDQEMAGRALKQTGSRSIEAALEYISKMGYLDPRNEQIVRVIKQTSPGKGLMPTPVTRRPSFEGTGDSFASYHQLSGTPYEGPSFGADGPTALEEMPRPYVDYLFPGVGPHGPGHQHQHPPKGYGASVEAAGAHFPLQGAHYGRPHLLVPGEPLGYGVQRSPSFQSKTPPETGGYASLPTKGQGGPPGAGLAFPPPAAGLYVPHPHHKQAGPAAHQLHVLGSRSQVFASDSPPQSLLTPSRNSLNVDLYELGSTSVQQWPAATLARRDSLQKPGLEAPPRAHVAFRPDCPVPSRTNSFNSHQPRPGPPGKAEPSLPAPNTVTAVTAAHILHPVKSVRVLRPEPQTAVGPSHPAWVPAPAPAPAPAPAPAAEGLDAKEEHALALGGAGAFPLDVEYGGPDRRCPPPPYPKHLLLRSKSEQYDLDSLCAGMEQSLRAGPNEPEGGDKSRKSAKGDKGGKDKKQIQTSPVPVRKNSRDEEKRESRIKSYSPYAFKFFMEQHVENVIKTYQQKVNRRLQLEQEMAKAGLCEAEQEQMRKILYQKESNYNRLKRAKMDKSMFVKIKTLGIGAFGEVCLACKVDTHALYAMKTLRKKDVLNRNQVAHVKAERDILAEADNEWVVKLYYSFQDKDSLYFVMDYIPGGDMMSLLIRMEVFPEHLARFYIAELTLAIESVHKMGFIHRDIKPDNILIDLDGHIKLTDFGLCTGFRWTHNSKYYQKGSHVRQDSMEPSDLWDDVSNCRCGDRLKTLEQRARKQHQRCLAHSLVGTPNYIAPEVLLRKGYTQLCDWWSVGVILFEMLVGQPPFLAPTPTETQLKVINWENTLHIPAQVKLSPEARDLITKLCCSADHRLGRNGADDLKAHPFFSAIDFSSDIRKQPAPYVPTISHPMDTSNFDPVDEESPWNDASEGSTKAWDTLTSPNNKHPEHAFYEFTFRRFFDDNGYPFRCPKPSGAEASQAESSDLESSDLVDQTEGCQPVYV
Sequence of UniProt Q08345 (whole entry, looked up): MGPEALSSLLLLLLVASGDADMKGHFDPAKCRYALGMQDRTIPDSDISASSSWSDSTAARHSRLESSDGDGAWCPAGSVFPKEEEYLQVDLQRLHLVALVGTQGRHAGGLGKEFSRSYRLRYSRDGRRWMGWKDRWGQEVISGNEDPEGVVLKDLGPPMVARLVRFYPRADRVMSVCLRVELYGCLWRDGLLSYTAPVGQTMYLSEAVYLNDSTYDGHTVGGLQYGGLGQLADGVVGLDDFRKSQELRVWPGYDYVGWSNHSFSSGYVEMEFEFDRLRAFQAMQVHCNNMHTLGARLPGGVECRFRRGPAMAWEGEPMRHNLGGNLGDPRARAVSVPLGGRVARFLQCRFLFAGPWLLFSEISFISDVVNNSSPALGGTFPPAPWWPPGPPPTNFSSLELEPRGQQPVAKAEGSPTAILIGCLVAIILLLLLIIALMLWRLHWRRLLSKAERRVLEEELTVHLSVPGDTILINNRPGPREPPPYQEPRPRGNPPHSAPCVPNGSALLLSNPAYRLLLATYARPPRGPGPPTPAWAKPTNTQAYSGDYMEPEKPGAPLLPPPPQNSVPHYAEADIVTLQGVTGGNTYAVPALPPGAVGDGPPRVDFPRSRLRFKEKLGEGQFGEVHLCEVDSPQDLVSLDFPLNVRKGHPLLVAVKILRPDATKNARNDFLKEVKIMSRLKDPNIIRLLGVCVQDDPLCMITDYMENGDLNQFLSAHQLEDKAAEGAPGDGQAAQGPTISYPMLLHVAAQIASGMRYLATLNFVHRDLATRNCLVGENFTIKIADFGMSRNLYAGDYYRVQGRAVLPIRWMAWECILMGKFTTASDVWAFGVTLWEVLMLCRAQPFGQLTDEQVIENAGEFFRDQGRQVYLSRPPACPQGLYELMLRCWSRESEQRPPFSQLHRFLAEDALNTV

Set 1
Structure (SMILES): O=C(Nc1cnc(Oc2ccc(F)cc2)nc1)N1CCc2ncccc2[C@@H]1c1ccc(F)cc1
Read-out: cell-free assay
Method: competition with immobilised ligand
Concentration: 1 µM
Endpoint: remaining binding
Uncharacterized serine/threonine-protein kinase SBK3 (SBK3, Homo sapiens, UniProt P0C264): 90%
Serine/threonine-protein kinase BRSK1 (BRSK1, Homo sapiens, UniProt Q8TDC3): 87%
RAF proto-oncogene serine/threonine-protein kinase (RAF1, Homo sapiens, UniProt P04049): 100%
Dual specificity protein kinase CLK1 (CLK1, Homo sapiens, UniProt P49759): 80%
Epidermal growth factor receptor (EGFR, Homo sapiens, UniProt P00533, del752-759): 70%
Receptor-interacting serine/threonine-protein kinase 1 (RIPK1, Homo sapiens, UniProt Q13546): 99%
Tyrosine-protein kinase Yes (YES1, Homo sapiens, UniProt P07947): 98%
Epithelial discoidin domain-containing receptor 1 (DDR1, Homo sapiens, UniProt Q08345): 95%
Tyrosine-protein kinase ABL1, non-phosphorylated (ABL1, Homo sapiens, UniProt P00519, H396P): 97%
Cyclin-dependent kinase-like 1 (CDKL1, Homo sapiens, UniProt Q00532): 100%
Serine/threonine-protein kinase Nek11 (NEK11, Homo sapiens, UniProt Q8NG66): 100%
Mitogen-activated protein kinase kinase kinase 11 (MAP3K11, Homo sapiens, UniProt Q16584): 83%
Serine/threonine-protein kinase LATS2 (LATS2, Homo sapiens, UniProt Q9NRM7): 99%
Tyrosine-protein kinase Srms (SRMS, Homo sapiens, UniProt Q9H3Y6): 95%
Mast/stem cell growth factor receptor Kit (KIT, Homo sapiens, UniProt P10721, L576P): 100%
Cyclin-dependent kinase-like 5 (CDKL5, Homo sapiens, UniProt O76039): 89%
Homeodomain-interacting protein kinase 1 (HIPK1, Homo sapiens, UniProt Q86Z02): 70%
Serine/threonine-protein kinase NLK (NLK, Homo sapiens, UniProt Q9UBE8): 73%
Fibroblast growth factor receptor 4 (FGFR4, Homo sapiens, UniProt P22455): 98%
Tyrosine-protein kinase ABL1, phosphorylated (ABL1, Homo sapiens, UniProt P00519, M351T): 57%

Set 2
Target: Histone acetyltransferase KAT6A, both winged helices, GST fusion (KAT6A, Homo sapiens, UniProt Q92794, residues 1-181)
Method: protein binding microarray
Form: double-stranded DNA, one strand shown
Matrix: in vitro
Concentration: not given
Setting: 8-mer, flanks averaged, mean of 2 arrays, mostly near background
Relative to: not given
Reading: higher = stronger binding
Endpoint: E-score
Residues (chain): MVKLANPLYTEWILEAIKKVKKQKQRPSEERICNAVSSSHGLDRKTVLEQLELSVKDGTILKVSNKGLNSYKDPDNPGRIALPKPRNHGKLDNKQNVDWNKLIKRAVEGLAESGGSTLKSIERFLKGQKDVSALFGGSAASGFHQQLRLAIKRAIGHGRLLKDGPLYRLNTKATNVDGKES
AATTGGCC: -0.152
TCCGTCCA: 0.0778
GTTATCCA: -0.172
ATACGCGG: 0.242
ATATCGAG: 0.101
CCCGAAGC: 0.0254
GGCCCCGA: 0.113
AGATTTGA: 0.0659

Set 3
Target: TAR DNA-binding protein 43, full length, His tag (TARDBP, Homo sapiens, UniProt Q13148, residues 1-414)
Method: RNA Bind-n-Seq
Form: RNA
Matrix: in vitro
Concentration: 20 nM
Setting: 6-mer, flanks averaged, single round
Added: 150 mM LiCl
Relative to: input library
Reading: higher = stronger binding
Endpoint: 6-mer enrichment (R)
UGAAAA: 0.845
UAUGAG: 1.19
GAGAAC: 0.951
GACACC: 1.14
UGGCGC: 1.05
GUCCAG: 0.938
UUCGGA: 0.942
GUGCGA: 1.18

Set 4
SMILES: CCCCc1c(-c2ccc(OC)cc2)[nH]c2nccnc12
Read-out: enzyme activity
Action: inhibitor
Concentration: 0.5 µM
Relative to: control
Endpoint: remaining activity
Wee1-like protein kinase (WEE1, Homo sapiens, UniProt P30291): 85.9%
MAP kinase-activated protein kinase 2 (MAPKAPK2, Homo sapiens, UniProt P49137): 90.2%
Dual specificity mitogen-activated protein kinase kinase 2 (MAP2K2, Homo sapiens, UniProt P36507): 79.4%
Angiopoietin-1 receptor (TEK, Homo sapiens, UniProt Q02763): 96.3%
Activin receptor type-1B (ACVR1B, Homo sapiens, UniProt P36896): 112%
Tyrosine-protein kinase Mer (MERTK, Homo sapiens, UniProt Q12866): 92.6%
Tyrosine-protein kinase Lck (LCK, Homo sapiens, UniProt P06239): 85%
Ribosomal protein S6 kinase alpha-2 (RPS6KA2, Homo sapiens, UniProt Q15349): 93%
Macrophage-stimulating protein receptor (MST1R, Homo sapiens, UniProt Q04912): 104%
Serine/threonine-protein kinase ULK2 (ULK2, Homo sapiens, UniProt Q8IYT8): 108%
Mitogen-activated protein kinase kinase kinase 5 (MAP3K5, Homo sapiens, UniProt Q99683): 95%
Serine/threonine-protein kinase TBK1 (TBK1, Homo sapiens, UniProt Q9UHD2): 81.4%
Glycogen synthase kinase-3 beta (GSK3B, Homo sapiens, UniProt P49841): 70.2%

For quick reference, copied from above (set 1):
Receptor-interacting serine/threonine-protein kinase 1 (RIPK1, Homo sapiens, UniProt Q13546): 99%
Tyrosine-protein kinase Yes (YES1, Homo sapiens, UniProt P07947): 98%
Epithelial discoidin domain-containing receptor 1 (DDR1, Homo sapiens, UniProt Q08345): 95%
Tyrosine-protein kinase ABL1, non-phosphorylated (ABL1, Homo sapiens, UniProt P00519, H396P): 97%
Cyclin-dependent kinase-like 1 (CDKL1, Homo sapiens, UniProt Q00532): 100%
Serine/threonine-protein kinase Nek11 (NEK11, Homo sapiens, UniProt Q8NG66): 100%
